Assay results collected from several papers.
Each line is one published result; not all experiments were run side by side. “And” joins repeats or separate records; there may be more than shown.
Target: Tyrosine-protein kinase ITK/TSK (ITK, Homo sapiens, UniProt Q08881)

Structure (SMILES) | test | conditions | how to read | measurement | result
COc1cc(Nc2nc(C)cc(-c3cnn4nc(OC)ccc34)n2)cc(C(F)(F)F)c1 | inhibitor | 1 µM | baseline: control | remaining activity | 82%
COc1ccc(O)cc1-c1c[nH]c2ncc(-c3cncc(C(=O)N(C)C)c3)cc12 | binding, competition with immobilised ligand | 0.2 µM | – | inhibition | -11.7%
C=CC(=O)N1CCCC(n2c(=O)c3ncccc3n(Cc3ccc(Oc4ccccc4)cc3)c2=O)C1 (stereo not shown) | cell-free assay, competition with immobilised ligand | 1 µM | – | remaining binding | 90%
C=CC(=O)N1CCc2ccc(-n3c(=O)ccc4cnc5ccc(-c6cnn(C)c6)cc5c43)cc21 | KINOMEscan | 1 µM | baseline: DMSO control | remaining binding | 92%
O=C(Cc1ccc(OCc2ccccc2)cc1)NC1(C(=O)O)CCN(C(=O)c2ccc(-c3cccc(Cl)c3)cc2)CC1 | enzyme activity, inhibitor | 10 µM | – | activity vs control | 137%
NC(=O)C[C@H]1CCc2sc3ncnc(O[C@H]4CC[C@H](N5CCOCC5)CC4)c3c21 | enzyme activity, inhibitor | 10 µM | – | inhibition | 0%
Cc1cnc2nc1Nc1cccc(c1)COC/C=C/COCc1cc(ccc1OCCN1CCOCC1)N2 | – | concentration not given | – | percent of control | 90%
CNC(=O)C1CCN(c2cc(C)c(F)cc2NC(=O)c2ccc(-c3cc(O)ccc3C)c(C)c2)CC1 | binding, competition with immobilised ligand | 1 µM | – | remaining binding | 100%
CNC1C[S+]2CC[S+]3CC[S+](C1)[Ru-4]321([N]=C=S)[n]2c3ccc(OC)cc3c3c4c(c5cc(F)c[n+]1c5c32)C(=O)NC4=O (stereo not shown) | KinomeScan | 0.1 µM | baseline: untreated | remaining binding | 100%
COc1ccc(NC(=O)Nc2ccc3c(c2)C(=O)N(C(C)CO)CC(C)C(CN(C)Cc2ccc4c(c2)OCO4)O3)cc1 (stereo not shown) | kinase activity, KinaseProfiler | 0.03 µM, species human | baseline: control | remaining activity | 95%
COc1c(Cl)cccc1Nc1c(-c2ccncc2C#C[C@@]2(C)CCCN2C(=O)/C=C/CN(C)C)[nH]c2c1C(=O)NCC2 | cell-free assay, competition with immobilised ligand | 3 µM | – | remaining binding | 91%
C=CC(=O)N1Cc2nc(-c3cc(-c4cc(Cl)cnc4Cl)c(F)cc3F)n(-c3ccncn3)c2C1 | cell-free assay, inhibitor | 1 µM | – | inhibition | 12.9%
C=CC(=O)Nc1cccc(-c2cnc3[nH]cc(C(=O)NC(C)(C)C)c3n2)c1 | kinase activity | 0.1 µM | – | inhibition | 50% and 65%
Cc1cccc(O[C@H]2CCC[C@@H](C(C)CNCc3ccncc3)C2)c1 (relative stereo) | kinase activity, kinome panel screening | 10 µM | – | inhibition | -1%
CN1CCN(c2ccc(Nc3ncc(Cl)c(Nc4ccccc4P(C)(C)=O)n3)cc2Br)CC1 | enzyme activity, inhibitor | 0.1 µM | – | inhibition | 82.4%
COCC12C(=O)NC3C4(C(OC)CC1O)C1CC5(O)C(OC)C(O)C(OC(C)=O)(C1C5OC(=O)c1ccccc1)C3(O)C(OC)C24 (stereo not shown) | kinase activity, inhibitor, ProQinase kinase profiling | 25 µM | baseline: control | remaining activity | 111% and 106%

Repeated from above:
Structure (SMILES) | test | conditions | how to read | measurement | result
CNC1C[S+]2CC[S+]3CC[S+](C1)[Ru-4]321([N]=C=S)[n]2c3ccc(OC)cc3c3c4c(c5cc(F)c[n+]1c5c32)C(=O)NC4=O (stereo not shown) | KinomeScan | 0.1 µM | baseline: untreated | remaining binding | 100%
COc1ccc(NC(=O)Nc2ccc3c(c2)C(=O)N(C(C)CO)CC(C)C(CN(C)Cc2ccc4c(c2)OCO4)O3)cc1 (stereo not shown) | kinase activity, KinaseProfiler | 0.03 µM, species human | baseline: control | remaining activity | 95%
COc1c(Cl)cccc1Nc1c(-c2ccncc2C#C[C@@]2(C)CCCN2C(=O)/C=C/CN(C)C)[nH]c2c1C(=O)NCC2 | cell-free assay, competition with immobilised ligand | 3 µM | – | remaining binding | 91%
